Experimental data pooled from the literature.
A part holds a random share of what one study measured. Several values in a cell are separate wells, animals, samples, runs or records.
Chain of UniProt P10721 (whole entry, unmodified, looked up): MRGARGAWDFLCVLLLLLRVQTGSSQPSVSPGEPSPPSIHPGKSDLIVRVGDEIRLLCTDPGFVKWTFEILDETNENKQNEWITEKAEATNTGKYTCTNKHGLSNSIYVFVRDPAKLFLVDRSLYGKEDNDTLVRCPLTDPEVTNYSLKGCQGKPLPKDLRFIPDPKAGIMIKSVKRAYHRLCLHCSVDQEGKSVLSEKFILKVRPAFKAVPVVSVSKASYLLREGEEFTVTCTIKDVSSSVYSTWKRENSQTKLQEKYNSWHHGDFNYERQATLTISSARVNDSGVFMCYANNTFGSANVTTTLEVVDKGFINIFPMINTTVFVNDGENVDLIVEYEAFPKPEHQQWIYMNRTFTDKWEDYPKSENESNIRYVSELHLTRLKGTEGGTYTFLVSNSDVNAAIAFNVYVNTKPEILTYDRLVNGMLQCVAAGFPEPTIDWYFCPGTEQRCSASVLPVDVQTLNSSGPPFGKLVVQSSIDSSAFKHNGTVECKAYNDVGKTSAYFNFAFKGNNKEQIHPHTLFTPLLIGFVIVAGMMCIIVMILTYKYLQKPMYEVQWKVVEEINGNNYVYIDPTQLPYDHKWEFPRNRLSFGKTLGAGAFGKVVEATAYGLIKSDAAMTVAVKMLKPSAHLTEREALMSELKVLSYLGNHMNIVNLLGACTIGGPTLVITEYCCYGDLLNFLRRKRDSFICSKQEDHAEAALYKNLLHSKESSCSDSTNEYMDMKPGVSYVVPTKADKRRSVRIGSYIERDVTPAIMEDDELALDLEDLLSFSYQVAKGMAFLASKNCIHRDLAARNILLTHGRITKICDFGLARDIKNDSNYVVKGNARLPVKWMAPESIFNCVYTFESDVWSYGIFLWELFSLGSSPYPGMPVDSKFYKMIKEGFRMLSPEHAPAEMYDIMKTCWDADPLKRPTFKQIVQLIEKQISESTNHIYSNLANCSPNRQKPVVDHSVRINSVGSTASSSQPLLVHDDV
Chain of UniProt Q13535 (whole entry, looked up): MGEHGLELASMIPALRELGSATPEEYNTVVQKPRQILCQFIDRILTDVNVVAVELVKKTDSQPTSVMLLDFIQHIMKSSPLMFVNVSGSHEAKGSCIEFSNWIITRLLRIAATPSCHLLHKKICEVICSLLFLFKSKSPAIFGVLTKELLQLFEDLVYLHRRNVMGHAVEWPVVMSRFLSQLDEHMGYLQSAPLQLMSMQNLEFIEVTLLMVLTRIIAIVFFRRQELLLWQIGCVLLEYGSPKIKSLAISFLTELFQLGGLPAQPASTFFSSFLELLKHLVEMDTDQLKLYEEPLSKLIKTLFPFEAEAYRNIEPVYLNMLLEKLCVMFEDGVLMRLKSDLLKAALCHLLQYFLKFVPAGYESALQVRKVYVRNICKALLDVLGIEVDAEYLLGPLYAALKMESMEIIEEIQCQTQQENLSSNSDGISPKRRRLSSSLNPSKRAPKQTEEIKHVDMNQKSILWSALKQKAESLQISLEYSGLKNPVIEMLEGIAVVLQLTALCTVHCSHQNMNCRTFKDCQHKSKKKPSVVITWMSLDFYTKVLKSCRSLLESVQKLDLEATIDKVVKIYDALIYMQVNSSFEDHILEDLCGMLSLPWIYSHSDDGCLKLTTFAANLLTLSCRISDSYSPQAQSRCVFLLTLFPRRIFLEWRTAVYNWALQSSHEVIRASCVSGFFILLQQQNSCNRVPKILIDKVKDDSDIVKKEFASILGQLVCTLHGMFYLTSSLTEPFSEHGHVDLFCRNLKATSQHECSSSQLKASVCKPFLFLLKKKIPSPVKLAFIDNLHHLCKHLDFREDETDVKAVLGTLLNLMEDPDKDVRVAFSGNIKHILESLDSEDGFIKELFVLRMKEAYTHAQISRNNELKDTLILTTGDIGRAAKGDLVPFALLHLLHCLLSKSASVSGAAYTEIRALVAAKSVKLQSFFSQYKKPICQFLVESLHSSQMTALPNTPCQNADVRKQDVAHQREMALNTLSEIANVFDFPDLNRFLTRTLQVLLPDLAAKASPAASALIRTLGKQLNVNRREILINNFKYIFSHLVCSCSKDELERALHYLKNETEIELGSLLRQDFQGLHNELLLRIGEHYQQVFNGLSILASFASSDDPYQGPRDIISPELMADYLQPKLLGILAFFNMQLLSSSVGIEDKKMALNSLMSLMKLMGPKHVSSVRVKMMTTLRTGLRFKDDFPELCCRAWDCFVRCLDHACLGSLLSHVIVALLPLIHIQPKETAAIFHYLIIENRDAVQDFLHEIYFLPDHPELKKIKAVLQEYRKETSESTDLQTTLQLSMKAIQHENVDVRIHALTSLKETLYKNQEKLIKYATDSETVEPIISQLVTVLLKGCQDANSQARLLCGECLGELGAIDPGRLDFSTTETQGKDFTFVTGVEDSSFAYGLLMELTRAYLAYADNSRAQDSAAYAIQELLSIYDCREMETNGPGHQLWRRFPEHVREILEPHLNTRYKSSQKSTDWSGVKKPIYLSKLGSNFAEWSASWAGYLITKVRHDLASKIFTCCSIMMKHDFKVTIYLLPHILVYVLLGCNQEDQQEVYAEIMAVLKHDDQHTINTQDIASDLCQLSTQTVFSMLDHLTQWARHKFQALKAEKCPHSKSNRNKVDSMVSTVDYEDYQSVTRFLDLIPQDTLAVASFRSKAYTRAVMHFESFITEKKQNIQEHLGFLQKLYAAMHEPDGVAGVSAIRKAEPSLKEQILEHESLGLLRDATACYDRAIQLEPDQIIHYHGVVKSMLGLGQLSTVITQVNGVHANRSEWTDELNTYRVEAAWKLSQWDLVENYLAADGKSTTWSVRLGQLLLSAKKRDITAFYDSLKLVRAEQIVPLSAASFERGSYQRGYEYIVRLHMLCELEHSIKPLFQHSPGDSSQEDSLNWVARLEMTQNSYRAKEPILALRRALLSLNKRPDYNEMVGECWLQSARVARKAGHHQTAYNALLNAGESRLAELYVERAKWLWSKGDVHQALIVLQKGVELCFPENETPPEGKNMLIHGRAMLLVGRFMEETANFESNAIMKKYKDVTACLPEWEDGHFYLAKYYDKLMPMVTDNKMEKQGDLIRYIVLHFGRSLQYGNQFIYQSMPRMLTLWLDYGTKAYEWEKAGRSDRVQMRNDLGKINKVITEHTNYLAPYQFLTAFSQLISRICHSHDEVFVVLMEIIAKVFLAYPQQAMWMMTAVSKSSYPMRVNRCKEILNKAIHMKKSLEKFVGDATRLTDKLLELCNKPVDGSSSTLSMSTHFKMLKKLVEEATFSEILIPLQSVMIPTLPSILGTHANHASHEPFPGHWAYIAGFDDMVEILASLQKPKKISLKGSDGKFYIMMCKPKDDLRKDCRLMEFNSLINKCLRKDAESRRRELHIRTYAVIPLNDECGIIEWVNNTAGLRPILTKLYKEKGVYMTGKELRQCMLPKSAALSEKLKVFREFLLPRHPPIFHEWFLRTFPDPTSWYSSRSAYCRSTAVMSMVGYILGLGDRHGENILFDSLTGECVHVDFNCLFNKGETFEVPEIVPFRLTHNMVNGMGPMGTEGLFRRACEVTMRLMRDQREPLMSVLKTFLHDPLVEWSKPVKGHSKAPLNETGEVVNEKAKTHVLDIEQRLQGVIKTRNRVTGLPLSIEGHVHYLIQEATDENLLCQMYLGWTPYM
Chain of UniProt P50613 (whole entry, looked up): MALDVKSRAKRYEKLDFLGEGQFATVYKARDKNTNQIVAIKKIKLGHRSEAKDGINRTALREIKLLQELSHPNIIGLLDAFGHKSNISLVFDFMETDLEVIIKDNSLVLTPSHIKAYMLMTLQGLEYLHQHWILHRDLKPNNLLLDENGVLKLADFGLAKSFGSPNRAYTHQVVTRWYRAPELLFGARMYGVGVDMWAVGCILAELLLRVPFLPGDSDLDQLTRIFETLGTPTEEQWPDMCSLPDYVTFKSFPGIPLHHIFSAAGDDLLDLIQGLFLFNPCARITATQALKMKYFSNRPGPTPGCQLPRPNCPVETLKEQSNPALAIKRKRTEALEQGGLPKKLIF
Chain of UniProt P00519 (whole entry, unmodified, looked up): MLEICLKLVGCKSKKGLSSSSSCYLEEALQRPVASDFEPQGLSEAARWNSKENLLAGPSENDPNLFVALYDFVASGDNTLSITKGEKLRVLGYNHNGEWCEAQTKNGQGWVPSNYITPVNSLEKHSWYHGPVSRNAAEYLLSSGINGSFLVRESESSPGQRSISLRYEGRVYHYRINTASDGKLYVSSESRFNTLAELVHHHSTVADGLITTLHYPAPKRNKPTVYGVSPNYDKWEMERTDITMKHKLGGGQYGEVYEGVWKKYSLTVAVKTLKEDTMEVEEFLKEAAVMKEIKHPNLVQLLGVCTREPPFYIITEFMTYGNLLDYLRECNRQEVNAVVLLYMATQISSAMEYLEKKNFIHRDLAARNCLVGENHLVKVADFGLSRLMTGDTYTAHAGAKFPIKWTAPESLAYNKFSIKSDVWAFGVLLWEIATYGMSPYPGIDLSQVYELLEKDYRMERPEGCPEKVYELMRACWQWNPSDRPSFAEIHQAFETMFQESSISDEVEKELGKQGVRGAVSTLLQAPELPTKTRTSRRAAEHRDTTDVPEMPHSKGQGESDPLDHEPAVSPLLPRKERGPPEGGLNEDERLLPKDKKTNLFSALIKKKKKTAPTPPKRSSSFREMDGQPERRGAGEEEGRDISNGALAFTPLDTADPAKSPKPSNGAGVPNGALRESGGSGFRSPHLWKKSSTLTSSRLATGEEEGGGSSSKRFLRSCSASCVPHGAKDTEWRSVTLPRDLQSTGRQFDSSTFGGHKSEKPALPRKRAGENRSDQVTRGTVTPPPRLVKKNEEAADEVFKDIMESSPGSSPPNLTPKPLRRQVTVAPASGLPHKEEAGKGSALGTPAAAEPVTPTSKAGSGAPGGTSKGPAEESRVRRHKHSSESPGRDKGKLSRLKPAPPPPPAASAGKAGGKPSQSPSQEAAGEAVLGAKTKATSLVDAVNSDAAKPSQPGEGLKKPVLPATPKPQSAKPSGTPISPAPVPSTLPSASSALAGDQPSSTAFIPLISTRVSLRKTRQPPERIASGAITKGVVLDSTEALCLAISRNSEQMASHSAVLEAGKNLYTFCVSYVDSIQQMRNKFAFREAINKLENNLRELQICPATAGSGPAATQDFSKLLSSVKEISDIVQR

Set 1
SMILES: CC(=O)c1ccc(N2CCOCC2)cc1O
Read-out: enzyme activity
Action: inhibitor
Tested at: 0.5 µM
Baseline: control
| target | remaining activity |
| --- | --- |
| MAP3K2 (Homo sapiens, UniProt Q9Y2U5) | 109% |
| CAMK1D (Homo sapiens, UniProt Q8IU85) | 96.9% |
| MAP3K8 (Homo sapiens, UniProt P41279) | 99.4% |
| PKN2 (Homo sapiens, UniProt Q16513) | 94.8% |
| ROCK2 (Homo sapiens, UniProt O75116) | 94.7% |
| BRSK1 (Homo sapiens, UniProt Q8TDC3) | 97.6% |
| NTRK3 (Homo sapiens, UniProt Q16288) | 101% |
| EGFR (Homo sapiens, UniProt P00533) | 97.4% |
| CDK7 (Homo sapiens, UniProt P50613) | 105% |
| MAPK10 (Homo sapiens, UniProt P53779) | 78.4% |
| RET (Homo sapiens, UniProt P07949) | 103% |
| PRKD1 (Homo sapiens, UniProt Q15139) | 102% |
| Cyclin-dependent kinase 2, with cyclin A (CDK2, Homo sapiens, UniProt P24941) | 99.3% |
| DMPK (Homo sapiens, UniProt Q09013) | 105% |
| GRK5 (Homo sapiens, UniProt P34947) | 108% |
| NEK9 (Homo sapiens, UniProt Q8TD19) | 93.9% |
| SLK (Homo sapiens, UniProt Q9H2G2) | 105% |
| PTK2B (Homo sapiens, UniProt Q14289) | 102% |
| DYRK4 (Homo sapiens, UniProt Q9NR20) | 95.6% |
| Aurora kinase A (AURKA, Homo sapiens, UniProt O14965) | 132% |
| CAMK1G (Homo sapiens, UniProt Q96NX5) | 101% |
| CSNK2A2 (Homo sapiens, UniProt P19784) | 98.8% |
| HIPK3 (Homo sapiens, UniProt Q9H422) | 101% |
| ROS1 (Homo sapiens, UniProt P08922) | 102% |

Set 2
SMILES: CCCOc1ccc([C@@H]2[C@@H](C(=O)O)[C@H](c3ccc4c(c3)OCO4)CN2CC(=O)Nc2c(CC)cccc2CC)cc1
Technique: competition with immobilised ligand
Tested at: 1 µM
| target | test | remaining binding [%] |
| --- | --- | --- |
| SBK3 (Homo sapiens, UniProt P0C264) | cell-free assay | 85 |
| ERBB2 (Homo sapiens, UniProt P04626) | cell-free assay | 80 |
| TLK1 (Homo sapiens, UniProt Q9UKI8) | cell-free assay | 77 |
| DAPK2 (Homo sapiens, UniProt Q9UIK4) | cell-free assay | 80 |
| KIT (Homo sapiens, UniProt P10721, T670I/V559D) | cell-free assay | 100 |
| PIP4K2B (Homo sapiens, UniProt P78356) | cell-free assay | 80 |
| Mast/stem cell growth factor receptor Kit, autoinhibited (KIT, Homo sapiens, UniProt P10721) | cell-free assay | 82 |
| Tyrosine-protein kinase ABL1, phosphorylated (ABL1, Homo sapiens, UniProt P00519, F317L) | cell-free assay | 81 |
| KIT (Homo sapiens, UniProt P10721, L576P) | cell-free assay | 100 |
| STK33 (Homo sapiens, UniProt Q9BYT3) | cell-free assay | 69 |
| INSRR (Homo sapiens, UniProt P14616) | cell-free assay | 100 |
| PRKACB (Homo sapiens, UniProt P22694) | cell-free assay | 100 |
| EGFR (Homo sapiens, UniProt P00533) | cell-free assay | 87 |
| PAK3 (Homo sapiens, UniProt O75914) | cell-free assay | 77 |
| MARK3 (Homo sapiens, UniProt P27448) | cell-free assay | 100 |
| RET (Homo sapiens, UniProt P07949, V804L) | cell-free assay | 97 |
| PRKACA (Homo sapiens, UniProt P17612) | cell-free assay | 100 |
| IRAK4 (Homo sapiens, UniProt Q9NWZ3) | cell-free assay | 100 |
| RIPK2 (Homo sapiens, UniProt O43353) | cell-free assay | 84 |
| Tyrosine-protein kinase ABL1, non-phosphorylated (ABL1, Homo sapiens, UniProt P00519, F317I) | binding | 96 |
| PIM1 (Homo sapiens, UniProt P11309) | cell-free assay | 89 |
| FGR (Homo sapiens, UniProt P09769) | cell-free assay | 93 |

Set 3
Compound: N=C(N)NC(=O)c1cnn(-c2cccc3ncccc23)c1C1CC1
Read-out: β-arrestin recruitment
Action: agonist
Technique: PRESTO-Tango
Tested at: 10 µM
Baseline: untreated
| target | fold over basal |
| --- | --- |
| PRLHR (Homo sapiens, UniProt P49683) | 0.87 |
| S1PR5 (Homo sapiens, UniProt Q9H228) | 1.01 |
| G-protein coupled receptor 22 (GPR22, Homo sapiens, UniProt Q99680) | 0.85 |
| MC4R (Homo sapiens, UniProt P32245) | 1 |
| GPR39 (Homo sapiens, UniProt O43194) | 1.07 |
| Probable G-protein coupled receptor 19 (GPR19, Homo sapiens, UniProt Q15760) | 0.83 |
| NPBWR2 (Homo sapiens, UniProt P48146) | 1.13 |
| Adhesion G protein-coupled receptor D2 (ADGRD2, Homo sapiens, UniProt Q7Z7M1) | 1.02 |
| PTGER4 (Homo sapiens, UniProt P35408) | 1 |
| CCR5 (Homo sapiens, UniProt P51681) | 1.15 |
| P2Y purinoceptor 6 (P2RY6, Homo sapiens, UniProt Q15077) | 1.47 |
| HTR2C (Homo sapiens, UniProt P28335) | 0.8 |
| Probable G-protein coupled receptor 45 (GPR45, Homo sapiens, UniProt Q9Y5Y3) | 1.2 |
| PROKR1 (Homo sapiens, UniProt Q8TCW9) | 1.25 |
| PTGDR2 (Homo sapiens, UniProt Q9Y5Y4) | 0.99 |
| Mas-related G-protein coupled receptor MRG (MAS1L, Homo sapiens, UniProt P35410) | 1 |
| Mas-related G-protein coupled receptor member F (MRGPRF, Homo sapiens, UniProt Q96AM1) | 0.94 |
| ADRA2C (Homo sapiens, UniProt P18825) | 1.6 |

Set 4
Compound: CC(C)S(=O)(=O)c1ccc2nccc(Nc3ccc4sc(C5CCCC5)nc4c3)c2c1.Cl
Read-out: kinase activity
Action: inhibitor
Tested at: 1 µM
| target | remaining activity |
| --- | --- |
| JAK3 (Homo sapiens, UniProt P52333) | 97% |
| ATR (Homo sapiens, UniProt Q13535) | 121% and 96% |
| RPS6KA3 (Homo sapiens, UniProt P51812) | 108% |
| ACVR1B (Homo sapiens, UniProt P36896) | 91% |
| RPS6KB1 (Homo sapiens, UniProt P23443) | 109% |
| MKNK2 (Homo sapiens, UniProt Q9HBH9) | 104% |
| RPS6KA5 (Homo sapiens, UniProt O75582) | 96% |
| CDK7 (Homo sapiens, UniProt P50613) | 105% |
| TEK (Homo sapiens, UniProt Q02763) | 78% |
| EPHA5 (Homo sapiens, UniProt P54756) | 99% |
| GRK3 (Homo sapiens, UniProt P35626) | 102% |
| STK10 (Homo sapiens, UniProt O94804) | 96% |
| FLT1 (Homo sapiens, UniProt P17948) | 111% |
